Measurements gathered from unrelated publications.
Lines come from different studies, so protocols differ. “And” joins repeats or separate records; there may be more than shown. Numbers after ± are the reported error.

CCCC[C@H](NC(=O)[C@@H](NC(=O)[C@H](CC(=O)O)NC(=O)[C@H](CCC(N)=O)NC(=O)[C@H](CC(C)C)NC(=O)[C@H](CC(C)C)NC(=O)[C@H](CCCN)NC(=O)[C@H](CCCNC(=N)N)NC(=O)[C@H](C)NC(=O)[C@H](CO)NC(=O)[C@H](CC(C)C)NC(=O)[C@H](CCC(N)=O)NC(=O)[C@H](CC)NC(=O)[C@H](CC(C)C)NC(=O)[C@@H](NC(=O)[C@H](CCCN)NC(=O)[C@H](CCCNC(=N)N)NC(=O)[C@H](Cc1ccc(O)cc1)NC(=O)[C@H](CO)NC(=O)[C@H](CC(N)=O)NC(=O)[C@@H](NC(=O)[C@H](Cc1ccccc1)NC(=O)[C@@H](NC(=O)[C@H](C)NC(=O)[C@H](CC(=O)O)NC(=O)[C@@H](C)NC(=O)[C@H](Cc1ccc(O)cc1)NC)[C@@H](C)CC)[C@@H](C)O)C(C)C)[C@@H](C)CC)C(=O)N[C@@H](CC(=O)O)C(=O)N[C@@H](CCCNC(=N)N)C(=O)NCC  relative potency (GH release; rat, male, serum; subcutaneous, 3 µg/kg, 30 min; relative to: reference GHRH agonist JI-38): 1.12
Cc1cc(O)c(C=O)c2c1C(=O)Oc1c(CO)c(O)c3c(c1O2)C(O)OC3=O (centres unmarked)  sperm viability (rat, male, streptozotocin-induced diabetes, cauda epididymis; 10 mg/kg, 9 weeks): 79.8 ± 2.4%
CCCC[C@H](NC(=O)[C@@H](NC(=O)[C@H](CC(=O)O)NC(=O)[C@H](CCC(N)=O)NC(=O)[C@H](CC(C)C)NC(=O)[C@H](CC(C)C)NC(=O)[C@H](CCCN)NC(=O)[C@H](CCCNC(=N)N)NC(=O)[C@H](C)NC(=O)[C@H](CO)NC(=O)[C@H](CC(C)C)NC(=O)[C@H](CCC(N)=O)NC(=O)[C@H](CC)NC(=O)[C@H](CC(C)C)NC(=O)[C@@H](NC(=O)[C@H](CCCN)NC(=O)[C@H](CCCNC(=N)N)NC(=O)[C@H](Cc1ccc(O)cc1)NC(=O)[C@H](CO)NC(=O)[C@H](CCC(N)=O)NC(=O)[C@@H](NC(=O)[C@H](Cc1ccccc1)NC(=O)[C@@H](NC(=O)[C@H](C)NC(=O)[C@H](CC(=O)O)NC(=O)[C@@H](C)NC(=O)[C@H](Cc1ccc(O)cc1)NC)[C@@H](C)CC)[C@@H](C)O)C(C)C)[C@@H](C)CC)C(=O)N[C@@H](CC(=O)O)C(=O)N[C@@H](CCCNC(=N)N)C(=O)NCCCCC(N)=O  relative potency (GH release; rat, male, serum; subcutaneous, 3 µg/kg, 30 min; relative to: reference GHRH agonist JI-38): 2.71 and 2.7
CC(C)C[C@H](NC(=O)[C@H](CCCNC(=N)N)NC(=O)CNC(=O)[C@@H](N)CC(C)C)C(=O)N[C@@H](CO)C(=O)N[C@@H](CCC(N)=O)C(=O)N[C@@H](CCC(=O)O)C(=O)N[C@@H](CC(C)C)C(=O)N[C@@H](Cc1c[nH]cn1)C(=O)N[C@@H](CCCNC(=N)N)C(=O)N[C@@H](CC(C)C)C(=O)N[C@@H](CCC(N)=O)C(=O)N[C@H](C(=O)N[C@@H](Cc1ccc(O)cc1)C(=O)N1CCC[C@H]1C(=O)N[C@@H](CCCNC(=N)N)C(=O)N[C@H](C(=O)N[C@@H](CC(N)=O)C(=O)N[C@H](C(=O)NCC(=O)N[C@@H](CO)C(=O)N[C@@H](CC(N)=O)C(=O)N[C@H](C(=O)N[C@@H](Cc1ccc(O)cc1)C(N)=O)[C@@H](C)O)[C@@H](C)O)[C@@H](C)O)[C@@H](C)O  APP protein level (Western blot; TgCRND8 mice, brain; icv, dose not given, 5 months; relative to: vehicle): no effect
CCCC[C@H](NC(=O)[C@@H](NC(=O)[C@H](CC(=O)O)NC(=O)[C@H](CCC(N)=O)NC(=O)[C@H](CC(C)C)NC(=O)[C@H](CC(C)C)NC(=O)[C@H](CCCN)NC(=O)[C@H](CCCNC(=N)N)NC(=O)[C@H](C)NC(=O)[C@H](CO)NC(=O)[C@H](CC(C)C)NC(=O)[C@H](CCC(N)=O)NC(=O)[C@H](CC)NC(=O)[C@H](CC(C)C)NC(=O)[C@@H](NC(=O)[C@H](CCCN)NC(=O)[C@H](CCCNC(=N)N)NC(=O)[C@H](Cc1ccc(O)cc1)NC(=O)[C@H](CO)NC(=O)[C@H](CCC(N)=O)NC(=O)[C@@H](NC(=O)[C@H](Cc1ccccc1)NC(=O)[C@@H](NC(=O)[C@H](C)NC(=O)[C@H](CC(=O)O)NC(=O)[C@@H](C)NC(=O)CCc1ccc(O)cc1)[C@@H](C)CC)[C@@H](C)O)C(C)C)[C@@H](C)CC)C(=O)N[C@@H](CC(=O)O)C(=O)N[C@@H](CCCNC(=N)N)C(=O)NC  relative potency (GH release; rat, male, serum; subcutaneous, 3 µg/kg, 30 min; relative to: reference GHRH agonist JI-38): 0.9
CC[C@H](C)[C@H](N)C(=O)N1CCC[C@H]1C(=O)NCC(=O)NCC(=O)O  activation energy (diketopiperazine formation, Arrhenius plot, ESI-MS; 1-propanol; 70, 80, 90 °C, 0.5% acetic acid): 78 ± 6 kJ/mol
CCCOC(=O)Cc1c(C)n(C(=O)c2ccc(Cl)cc2)c2ccc(OC)cc12  latency of nociceptive response (hot plate test; BALB/c mice; 75 mg/kg, 120 min): 15.2 ± 1.31 s
CCCN(c1ccc(C(=O)NCCC(=O)O)cc1)S(=O)(=O)c1cc(C)c(-c2ccc(C(C)(C)C)cc2)c(C)c1  glucagon-induced blood glucose (HFD-induced obese mouse; oral, 50 mg/kg, all time points, added: 15 µg/kg glucagon ip after 1 h): decreased
CC1=C(C2=C(C)C(=O)c3c(cc(O)c(O)c3Cc3ccccc3)C2=O)C(=O)c2cc(O)c(O)c(Cc3ccccc3)c2C1=O (single isomer, unassigned)  maximal activity (spleen shrinkage; B6 Bcl-2-transgenic mice; ip, 20 µmol/kg; relative to: maximum 50%): ~82%
CC(=O)[O-].[Cu+2].[O-]c1ccc(Br)cc1C=NCCN1CCOCC1  IC50 (nitric oxide scavenging): 240 µM
CCOc1ccc(C(=O)N2c3ccc(F)cc3[C@@H](Nc3ccccc3)C[C@H]2C)cc1  logit mortality (Aedes albopictus second-instar larvae; 1 µM): -0.05
CCCCCCCCCCCCCCCC(=O)NCCCC[C@H](NC(=O)[C@H](CCC(=O)O)NC(=O)[C@H](Cc1ccc(O)cc1)NC(=O)[C@H](CCC(=O)O)NC(=O)COCC(=O)NCCCOCCOCCOCCCNC(=O)[C@H](Cc1ccccc1)NC(=O)[C@H](CC(N)=O)NC(=O)[C@H](Cc1c[nH]cn1)NC(=O)[C@@H](NC(=O)[C@H](CC(=O)O)NC(=O)[C@H](CCC(N)=O)NC(=O)[C@H](CC(C)C)NC(=O)[C@H](CCCCN)NC(=O)[C@H](CCCCN)NC(=O)[C@H](CCCNC(=N)N)NC(=O)[C@H](CC(C)C)NC(=O)[C@H](Cc1c[nH]c2ccccc12)NC(=O)[C@H](CCC(=O)O)NC(=O)[C@@H](NC(=O)[C@H](CCCNC(=N)N)NC(=O)[C@H](CCC(=O)O)NC(=O)[C@H](CCSC)NC(=O)[C@H](CO)NC(=O)[C@H](CC(N)=O)NC(=O)[C@H](CC(C)C)NC(=O)[C@H](Cc1c[nH]cn1)NC(=O)[C@H](CCCCN)NC(=O)CNC(=O)[C@H](CC(C)C)NC(=O)[C@H](CC(N)=O)NC(=O)[C@H](Cc1c[nH]cn1)NC(=O)[C@H](CCSC)NC(=O)[C@H](CC(C)C)NC(=O)[C@H](CCC(N)=O)NC(=O)[C@@H](NC(=O)[C@H](CCC(=O)O)NC(=O)[C@H](CO)NC(=O)[C@@H](NC(=O)[C@@H](N)CO)C(C)C)[C@@H](C)CC)C(C)C)C(C)C)C(=O)N[C@@H](CCC(=O)O)C(=O)N[C@@H](Cc1ccc(O)cc1)C(=O)N[C@@H](CCC(=O)O)C(N)=O  duration of phosphate decrease (CD-1 mice, plasma; sc, 10 nmol/kg): ≥ 6 h
CCCCCN(CCCCC)C(C)C(=O)c1cc(C)c2ccc3cc(C(C)C)ccc3c2c1.Cl (centres unmarked)  regulatory T cells (flow cytometry; humanized PD-1 mouse, MC38-hPD-L1 tumour, tumour; dose not given, day 30; relative to: atezolizumab): decreased
CC1(CN)CCN(c2cnc(Sc3cccc(Cl)c3Cl)c(N)n2)CC1  inflammatory cell infiltration (HE staining; imiquimod psoriasis mice, skin; dose not given): decreased
COc1c2c(cc3oc(C)cc(=O)c13)O[C@H](C(C)(C)O[C@@H]1O[C@H](CO)[C@@H](O)[C@H](O)[C@H]1O)C2  hot plate latency (analgesia; mouse; oral, 4 mg/kg, 1.5 h): 9.76 ± 3.5 s
O=C1/C(=C/c2ccccc2)Oc2c1c(O)cc1oc3cc(O)c(O)cc3c21  EC50 (ABTS scavenging, absorbance): 2990 µM
CC(C)[C@H](CO)Nc1nc(Nc2ccc(C(=O)NCCNS(=O)(=O)c3cccc4c(N(C)C)cccc34)c(Cl)c2)c2ncn(C(C)C)c2n1  PCNA-positive cells (ND2-SmoA1 mice, medulloblastoma tumour; dose not given): 38.3 ± 12.4%
CCCC[C@H](NC(=O)[C@@H](NC(=O)[C@H](CC(=O)O)NC(=O)[C@H](CCC(N)=O)NC(=O)[C@H](CC(C)C)NC(=O)[C@H](CC(C)C)NC(=O)[C@H](CCCN)NC(=O)[C@H](CCCNC(=N)N)NC(=O)[C@H](C)NC(=O)[C@H](CO)NC(=O)[C@H](CC(C)C)NC(=O)[C@H](CCC(N)=O)NC(=O)[C@H](CC)NC(=O)[C@H](CC(C)C)NC(=O)[C@@H](NC(=O)[C@H](CCCN)NC(=O)[C@H](CCCNC(=N)N)NC(=O)[C@H](Cc1ccc(O)cc1)NC(=O)[C@H](CO)NC(=O)[C@H](CC(N)=O)NC(=O)[C@@H](NC(=O)[C@H](Cc1ccccc1)NC(=O)[C@@H](NC(=O)[C@H](C)NC(=O)[C@H](CC(=O)O)NC(=O)[C@@H](C)NC(=O)[C@H](Cc1ccc(O)cc1)NC)[C@@H](C)CC)[C@@H](C)O)C(C)C)[C@@H](C)CC)C(=O)N[C@@H](CC(=O)O)C(=O)NCCCCNC(=N)N  relative potency (GH release; rat, male, serum; subcutaneous, dose not given, 15 and 30 min; relative to: reference GHRH agonist JI-38): 1 to 4 fold
CCCCSc1nnc(-c2ccc(N)cc2)o1  H2O2 scavenging (2 × IC50): 81.9%
CCCCC1NC(=O)c2ccccc21 (racemic)  black tail occurrence (thrombosis; mouse, carrageenan-induced thrombosis; oral, 20 mg/kg daily for 2 days, 24 h after carrageenan): 40%

Repeated from above:
CCCCSc1nnc(-c2ccc(N)cc2)o1  H2O2 scavenging (2 × IC50): 81.9%
Cc1cc(O)c(C=O)c2c1C(=O)Oc1c(CO)c(O)c3c(c1O2)C(O)OC3=O (centres unmarked)  sperm viability (rat, male, streptozotocin-induced diabetes, cauda epididymis; 10 mg/kg, 9 weeks): 79.8 ± 2.4%
CCCC[C@H](NC(=O)[C@@H](NC(=O)[C@H](CC(=O)O)NC(=O)[C@H](CCC(N)=O)NC(=O)[C@H](CC(C)C)NC(=O)[C@H](CC(C)C)NC(=O)[C@H](CCCN)NC(=O)[C@H](CCCNC(=N)N)NC(=O)[C@H](C)NC(=O)[C@H](CO)NC(=O)[C@H](CC(C)C)NC(=O)[C@H](CCC(N)=O)NC(=O)[C@H](CC)NC(=O)[C@H](CC(C)C)NC(=O)[C@@H](NC(=O)[C@H](CCCN)NC(=O)[C@H](CCCNC(=N)N)NC(=O)[C@H](Cc1ccc(O)cc1)NC(=O)[C@H](CO)NC(=O)[C@H](CCC(N)=O)NC(=O)[C@@H](NC(=O)[C@H](Cc1ccccc1)NC(=O)[C@@H](NC(=O)[C@H](C)NC(=O)[C@H](CC(=O)O)NC(=O)[C@@H](C)NC(=O)[C@H](Cc1ccc(O)cc1)NC)[C@@H](C)CC)[C@@H](C)O)C(C)C)[C@@H](C)CC)C(=O)N[C@@H](CC(=O)O)C(=O)N[C@@H](CCCNC(=N)N)C(=O)NCCCCC(N)=O  relative potency (GH release; rat, male, serum; subcutaneous, 3 µg/kg, 30 min; relative to: reference GHRH agonist JI-38): 2.71 and 2.7
